Measured values gathered from unrelated publications.
± gives the spread as reported.

`Cc1ccc(NC(=O)c2c(C)oc3ccc(O)c(CN4CCCCCC4)c23)cc1` has an IC50 of 12.9 ± 1.4 µM (ARD; cell viability, MTS; 72 h).
The IC50 of `CN1CCCNC(=O)CC2(CCCCC2)CC(=O)NCCCN(C)CCCNc2cccc3c2C(=O)c2cccc(c2C3=O)NCCC1` is reported as greater than 20 µM (SAS; cell growth or viability, CCK-8; 48 h).
With `NS(=O)(=O)c1ccc(NC(=O)NN[C@@H]2O[C@H](CO)[C@@H](O)[C@H](O)[C@@H]2O)cc1` the IC50 was greater than 100 µM (HCEC; cell growth or viability, MTT; 96 h).
For `CC1(C)Cc2c(-c3ccccc3)c(-c3ccc(Cl)cc3)c(CC(=O)NCC(=O)O)n2C1`, the IC50 was greater than 100 µM (mouse peritoneal macrophages; PGI2 production; together with: LPS).
For `C=CC(OC(C)=O)c1ccc(OC)cc1` (centres unmarked), the IC50 was greater than 50 µM (RT-112; MTT; 24 h).
The IC50 of `COc1cc2c(cc1C(C)(C)O)CCC1C(C)(C)c3nc(C)ncc3C[C@]21C` (mixture of isomers) is reported as 113 µM (HAF; cell growth or viability, SRB; 24 h).
For `NCCCCCCN1N=C(c2ccc(NC(=O)N3Cc4ccncc4C3)cc2)CC(c2cccc3ncccc23)C1=O` (centres unmarked), the IC50 was 0.012 µM (A549-C4.4a; cell viability, CellTiter-Glo).
`S=c1n(-c2ccccc2)c2c3ccccc3nc3[n+]2[n]1[Ir-3]12([S]3)([c]3ccccc3-c3cccc[n+]31)[c]1ccccc1-c1cccc[n+]12` has an IC50 of greater than 50 µM (MRC9; cell viability, MTT; irradiation 450 nm, 15.5 mW/cm^2, 15 min).
`CC(=O)N[C@H]1C(n2cc([C@@](C)(O)c3cccc(F)c3)nn2)O[C@H](COCc2ccccc2)[C@H](OCc2ccccc2)[C@@H]1OCc1ccccc1` (some centres unmarked) has an IC50 of 38.1 µM (JEG-3; cell growth or viability, MTS; 72 h).
With `C=CC(=O)Nc1ccc(-c2c(-c3ccc(Oc4ccccc4)cc3)c3c(N)ncnc3n2C)cc1` the IC50 was 0.005 µM (SNU-16; cell growth or viability, ATP luminescence; 96 h).
`O=Cc1c2cc(Cl)ccc2n2c1c(-c1ccccc1)c(SC(F)(F)F)c1ccccc12` has an IC50 of greater than 100 µM (LS174T; cell growth or viability, MTT; 72 h).
For `CCOC(=O)c1ccc2c(c1)n(CC)[c]([Au-]([Cl])([Cl])[Cl])[n+]2CC`, the IC50 was 5.5 ± 0.9 µM (RC-124 kidney epithelial; cell proliferation, crystal violet staining; 96 h).
For `CC(=O)c1cnc(N)nc1N1CC[C@H]1c1nn2ccc(Cl)c2c(=O)n1-c1ccccc1`, the IC50 was 0.018 µM (human CD4 T cells; Th2 differentiation, refers to: IL-13).
`Cc1cc(C=O)cc(C)c1Oc1cc(Nc2ccc(C#N)cn2)nc2ccncc12` has an IC50 of 17.4 ± 3.8 µM (MOLT-3; 48 h).
`COc1ccc(/C=C/C2=[N+]3C(=C(COC(C)=O)c4c(C)cc(/C=C/c5ccc(OC)cc5)n4[B-]3(F)F)C(C)=C2)cc1` has an IC50 of greater than 100 µM (RPE-1; cell growth or viability, resazurin; dark).
`Cc1nnc2c3c(-c4ccc5ccccc5n4)cc(-c4ccccc4)nc3n3c(C)nnc3n12` gave an IC50 of 19.8 µM (RPE-1; cell growth or viability, MTT; 48 h).
The IC50 of `C=C[CH2][Pd-]([Cl])[Cl].Cc1cc(C)c(-n2c[n+](-c3c(C)cc(C)cc3C)c3c2-c2cccc4cccc-3c24)c(C)c1` is reported as 1.8 ± 0.4 µM (C13 cisplatin-resistant; cell viability, MTT; 72 h).
`Clc1ccc(C=[N+]2N=C(Nc3ccccc3)[S][Pt-]2([Cl])[Cl])s1` gave an IC50 of 15.6 µM (CRFK; cell growth or viability).
`Cc1cnc(Nc2cc(C)c(C)c(C)c2)nc1Nc1ccc2oc(=O)[nH]c2c1` has an IC50 of 0.0517 µM (human CD14+ monocytes; STAT6 phosphorylation; together with: IL-13).
`CC(C)c1cccc(C(C)C)c1N1CCN(c2c(C(C)C)cccc2C(C)C)C1=[Se].[Cl][Au]` gave an IC50 of 4.2 ± 0.8 µM (LoVo MDR; MTT; 72 h).
